Measurements of several laboratories.
Lines come from different studies, so protocols differ. ± gives the spread as reported.

`O=C(O)COc1ccc(Br)cc1C=NNC(=O)Cc1ccccc1` (mixture of isomers) gave a creatinine of 0.61 ± 0.12 mg/dL (mouse, serum; oral, 100 mg/kg, 48 h).
For `C=CCCCC(C)(NC(=O)[C@H](Cc1c[nH]cn1)NC(=O)[C@@H](N)CC(=O)O)C(=O)N[C@@H](CC(N)=O)C(=O)N1CCC[C@H]1C(=O)N[C@@H](CCC(N)=O)C(=O)N[C@H](C(=O)N[C@@H](CCCNC(=N)N)C(N)=O)[C@@H](C)CC` (some centres unmarked), spleen coefficient read “increased” (Kunming mouse, male; subcutaneous, 5000 mg/kg; relative to: PBS control).
The half-life of `CCCCCC(=O)OCn1cc(F)c(=O)[nH]c1=O` is reported as 36.2 ± 0.3 h (HCl or phosphate buffer; 80 µg/mL, pH 1.2, 37 °C, chemical stability).
For `CC(C)C[C@H](NC(=O)[C@@H](NC(=O)[C@H](CCONC(=N)N)NC(=O)OCc1ccccc1)C1CCCCC1)[C@@H](O)CC(=O)NCCc1ccccc1`, the EC50 was 380 nM (Plasmodium falciparum; parasite growth, LDH; parental resistant).
The IC50 of `Cc1cccc(-c2ccc3nc(NC(=O)C4CCCNC4)nn3c2)c1` (centres unmarked) is reported as 12000 nM (crk3 (Leishmania mexicana, UniProt O15851); enzyme activity, inhibitor, radiometric).
`CC[C@H](C)[C@@H]1NC(=O)[C@H](CC(C)C)NC(=O)[C@H](Cc2ccccc2)NC(=O)[C@H](Cc2ccccc2)NC(=O)[C@@H]2CCCN2C(=O)[C@@H]2CCCN2C(=O)[C@H](C(C)C)NC(=O)[C@H](CC(C)C)NC(=O)[C@H]([C@@H](C)CC)NC1=O` has a cytotoxicity of 18% (MCF7; LDH release; 200 µg/mL, 24 h).
With `Cc1ccc(NC(=O)Nc2ccnc(-c3cccnc3)n2)cc1` the IC50 was 26 nM (Cyclin-dependent kinase 2, with cyclin A (CDK2, Homo sapiens, UniProt P24941); enzyme activity, inhibitor).
Under “area increase per lipid”, `NCCCN1CC(=O)N(CC(c2ccccc2)c2ccccc2)CC(=O)N(CCCN)CC(=O)N(CC(c2ccccc2)c2ccccc2)CC(=O)N(CCCN)CC(=O)N(CC(c2ccccc2)c2ccccc2)CC1=O` is recorded as no more than 40% (DPPC/cholesterol 1:1 monolayer; 20% of MIC, 23 °C, 30 mN/m).

Repeated from above:
For `C=CCCCC(C)(NC(=O)[C@H](Cc1c[nH]cn1)NC(=O)[C@@H](N)CC(=O)O)C(=O)N[C@@H](CC(N)=O)C(=O)N1CCC[C@H]1C(=O)N[C@@H](CCC(N)=O)C(=O)N[C@H](C(=O)N[C@@H](CCCNC(=N)N)C(N)=O)[C@@H](C)CC` (some centres unmarked), spleen coefficient read “increased” (Kunming mouse, male; subcutaneous, 5000 mg/kg; relative to: PBS control).
